Assay results gathered from unrelated publications.
Compare with care: the assays were run in different laboratories. “And” joins repeats or separate records; there may be more than shown. Numbers after ± are the reported error.

`Cn1cncc1[C@@](N)(c1ccc(Cl)cc1)c1ccc2c(c1)c(-c1cccc(Cl)c1)cc(=O)n2C` has an accumulation index of 1.2 and 1.03 and 1.36 and 1.17 and 1.09 (human, plasma; oral, 300 mg/m^2; relative to: AUC(0-inf) over AUC(0-12h)).
`O=C(O)CNC(=O)c1ccc(O)cc1` gave a plasma concentration of 6040 nM (human plasma; median).
`C[C@@H](N)C1CCN(S(=O)(=O)c2cccc3cnccc23)CC1`: “duration of quantifiable plasma levels” at most 8 h (healthy volunteers, fasted, plasma; oral, 250 mg).
`CCCn1cc(C)c2c(=O)[nH]c(-c3cc(S(=O)(=O)N4CCN(CC)CC4)ccc3OCC)nc21` — result for “number of TEAEs”: 50 (human; concentration not given).
With `Cc1cc(Nc2cc3ncccc3c(N[C@@H]3C[C@H]4CC[C@@H](C3)N4CCC#N)n2)n[nH]1` the AUC(0-24) was 13.5 ng·h/mL (human, plasma; 100 mg single dose, mean).
The plasma concentration of `O=C(O)CCc1cccc(O)c1O` is reported as 943 nM (human plasma; mean).
Under “patients, drug-related laboratory TEAEs”, `CC(C)C[C@H](NC(=O)[C@@H](Cc1c[nH]c2ccccc12)NC(=O)[C@H](Cc1ccc(O)cc1)NC(=O)[C@H](CO)NC(=O)[C@H](Cc1c[nH]c2ccccc12)NC(=O)[C@H](Cc1c[nH]cn1)NC(=O)[C@@H]1CCC(=O)N1)C(=O)N[C@@H](CCCNC(=N)N)C(=O)N1CCC[C@H]1C(=O)NCC(N)=O` is recorded as 12.9% (Chinese CPP children, girls; intramuscular, 22.5 mg, 12 months, day 1, month 6).
The plasma concentration of `O=C(O)C=Cc1ccc(OS(=O)(=O)O)c(O)c1` is reported as 114 nM (human plasma; median).
`COc1cc(Nc2ncc3c(n2)-c2ccc(Cl)cc2C(c2c(F)cccc2OC)=NC3)ccc1C(=O)O` — result for “patients with adverse event”: 21% (item: increased ALT, grade 1; cancer patients, phase 1/2; oral, dose not given, with: pembrolizumab).
Under “mean ACTH level”, `N#Cc1ccc2c(c1)[C@H]1CCCN(C(=O)c3ccc4[nH]cnc4c3)[C@H]1C2` is recorded as 5.8 pmol/L (human; 160 mg, day 15).
`OCc1nc2ccc(NCc3ccc(C(F)(F)F)cc3)cc2[nH]1` gave a tissue/plasma ratio of 4.44 ± 0.2 (male Balb/c mice, lungs; oral, 10 mg/kg, 6 h; relative to: tissue over plasma).
`NC1(C(=O)N[C@@H](CCO)c2ccc(Cl)cc2)CCN(c2nc[nH]c3nccc2-3)CC1`: “incidence of Dysgeusia” 6.7% (metastatic CRPC patients; dose not given, any grade, treatment-related, all doses, with: enzalutamide 160 mg daily).
For `C=CC(=O)NC1CCN(c2ncc3ncnc(Nc4ccc(Oc5ccc6c(c5)ncn6C)c(C)c4)c3n2)CC1`, “participants with headache” read 18.8% (human, male; oral, 240 mg, treatment-related adverse event).
For `COc1ccc2c3c([nH]c2c1)[C@H](CC(C)C)N1C(=O)[C@H](CC(=O)NC(C)C)NC(=O)[C@@H]1C3`, the serum concentration was 13100 nM and 10300 nM and 10900 nM (wild-type mouse, male, serum; oral, 100 mg/kg, 4 h).
`O=C(Nc1nc2cccc(-c3ccc(CN4CCS(=O)(=O)CC4)cc3)n2n1)C1CC1` — result for “patients with Somnolence”: 8.3% (rheumatoid arthritis patients; oral, 100 mg twice daily, 4 weeks, TEAE regardless of relatedness).
`O=C(O)[C@H]1O[C@@H](Oc2cc(O)cc(/C=C\c3ccc(O)cc3)c2)[C@H](O)[C@@H](O)[C@@H]1O` — result for “samples above LOQ”: 0% (human, cerebrospinal fluid).
`Cc1nc2cccc(OCC(C)(C)C(=O)NC(C)C)c2c(N)c1C(=O)O` gave a Cmax ratio of 2.92 (male Sprague-Dawley rat, plasma; dietary, 100 mg/kg/day; relative to: day 90 over day 7).
With `Cc1noc(C)c1-c1cc(C(O)(c2ccccn2)c2ccccn2)c2nc(C3CC3)[nH]c2c1` the AUCtau was 4260 ng·h/mL (human male, fasted, plasma; oral, 2 mg once daily, cycle 1 day 8).
`C[C@H](O)C(=O)C1=Nc2c(nc(N)[nH]c2=O)NC1` — result for “severe TEAE incidence”: 0% (healthy human volunteers; oral, 20 mg/kg, 4 days, monotherapy; relative to: subjects).
`COc1cc(/C=C/C(=O)O)cc(OC)c1O` gave a plasma concentration of 255 nM (human plasma; mean).
`CCOc1c([C@H](C)n2nc(C)c3c(N)ncnc32)cc(Cl)c(F)c1[C@@H]1CNC(=O)C1` has a half-life of 9.6 ± 3 h (patients with B-cell malignancies, plasma; oral, 20 mg, day 15, all cohorts, monotherapy).
For `CC[C@H](C)[C@H](NC(=O)[C@H](Cc1ccccc1)NC(=O)[C@H](CC(=O)O)NC(=O)[C@H](CCCNC(=N)N)NC(=O)[C@H](C)NC(=O)[C@H](C)NC(=O)[C@H](CC(C)C)NC(=O)[C@H](CC(N)=O)NC(=O)[C@H](CC(=O)O)NC(=O)[C@H](CC(C)C)NC(=O)[C@@H](NC(=O)[C@@H](NC(=O)[C@H](CC(N)=O)NC(=O)[C@H](CCSC)NC(=O)[C@H](CCC(=O)O)NC(=O)[C@H](CC(=O)O)NC(=O)[C@H](CO)NC(=O)[C@H](Cc1ccccc1)NC(=O)[C@H](CO)NC(=O)CNC(=O)[C@H](CC(=O)O)NC(=O)CNC(=O)[C@@H](N)Cc1c[nH]cn1)[C@@H](C)O)[C@@H](C)CC)C(=O)N[C@@H](CC(N)=O)C(=O)N[C@@H](Cc1c[nH]c2ccccc12)C(=O)N[C@@H](CC(C)C)C(=O)N[C@H](C(=O)N[C@@H](CCC(N)=O)C(=O)N[C@H](C(=O)N[C@@H](CCCCN)C(=O)N[C@H](C(=O)N[C@H](C(=O)N[C@@H](CC(=O)O)C(=O)O)[C@@H](C)O)[C@@H](C)CC)[C@@H](C)O)[C@@H](C)CC`, “typical absorption rate constant” read 0.33 h⁻¹ (population PK sensitivity analysis; human; maturation function).
For `C=CCN1CC(=O)N2[C@@H](Cc3ccc(O)cc3F)C(=O)N(Cc3cccc(N4CC(N5CCN(CC)CC5)C4)n3)C[C@@H]2N1C(=O)NCc1ccccc1`, “treatment-related AST increased” read 0% (advanced solid tumour patients; oral, 30 mg twice daily, grade ≥3, dose-escalation).
`C[C@H]1[C@H](NC(=O)/C(=N\OC(C)(C)C(=O)O)c2csc(N)n2)C(=O)N1S(=O)(=O)O` has an amount permeated of 2.29 nmol (starch gel membrane permeability; Gram-negative envelope surrogate; 200 µM, 30 min, pH 7.4).
`O=C(O)CCC(=O)O.[2H]C([2H])([2H])Oc1cc(C)c2[nH]ccc2c1CN1CC[C@@H](C2CC2)C[C@H]1c1ccc(C(=O)O)cc1` — result for “subjects with drug-related TEAE”: 50% (healthy Chinese subjects; 200 mg once daily, multiple ascending dose).
For `CCC[C@@H]1C[C@@H](C(=O)N[C@@H]([C@H]2O[C@H](SC)[C@H](O)[C@@H](O)[C@H]2O)[C@@H](C)O)N(C)C1`, the amount permeated was 0.23 nmol (starch gel membrane permeability; Gram-negative envelope surrogate; 200 µM, 10 min, pH 7.4).
`C[C@@H](N)c1cc(Cl)ccc1Cn1c(=S)[nH]c(=O)c2[nH]ccc21`: “drug-related adverse events” 0% (human; oral, 2.5 mg single dose).
`CCc1cc(C(=O)NC)c2nccc(N3CCc4c(cc(Cn5ccnc5)cc4-c4cn(C)nc4C(F)(F)F)C3=O)c2c1` has an AUC extrapolated of 0.2% (Sprague Dawley rats, male, plasma; oral, 100 mg/kg twice daily, day 1).
`CNCc1ccc(-c2[nH]c3cc(F)cc4c3c2CCNC4=O)cc1` — result for “patients with adverse event”: 19.6% (item: Cough; human patients; oral, dose not given, all grades, all doses).
`O=C(COc1ccc(Cl)cc1)NC12CC(c3nnc([C@H]4C[C@@H](OC(F)(F)F)C4)o3)(C1)C2`: “postural dizziness participants” 16.7% (human both sexes; oral, 45 mg once daily, 14 days).
Under “subjects with Wheezing TEAEs”, `Cc1cc(-c2nccc3c2ccn3CC(=O)Nc2ccc(-c3cnccn3)cn2)ccn1` is recorded as 0% (human; SAD part, single 40 mg dose).
With `COc1ncc(-c2nc3c(n2C(C)C)[C@H](c2ccc(Cl)cc2)N(c2cc(Cl)cn(C)c2=O)C3=O)c(OC)n1` the median half-life was 8.7 h (human patients, plasma; oral, 12.5 mg, high-dose arm, cycle 2 day 1).
For `CCCCOc1nc(N)c2c(n1)N(Cc1cccc(CN3CCCC3)c1)CC(=O)N2`, “drug-related TEAE incidence” read 0% (item: Dizziness; human; oral, 2 mg).
With `N[C@@H]1c2ccccc2OC12CCN(c1cnc3c(N4CCCc5ncccc54)n[nH]c3n1)CC2` the AUC(0-tau) was 4320 ng·h/mL (advanced metastatic solid tumour patients, plasma; oral, 150 mg once daily, cycle 1 day 1, geometric mean).
`CN1C(=O)[C@@H](NC(=O)c2nnc(Cc3ccccc3)[nH]2)COc2cccnc21`: “participants with any TEAE” 16.7% (phase I single ascending dose; human, male and female; oral, 100 mg, fasted).
For `C[C@@H](Oc1cc(-c2cnn(C3CCNCC3)c2)cnc1N)c1c(Cl)ccc(F)c1Cl`, the AUCtau, dose-normalized was 13 ng·h/mL/mg (human patients, plasma; oral, dose not given, cycle 2 day 1, median, with: avelumab).
For `O=C(N[C@H](Cc1c[nH]c2ccccc12)C(=O)Nc1ccncc1)c1ccc(-c2ccc(F)c(Cl)c2)cc1F`, the concentration was 510 nM (Swiss Webster mouse, female, muscle; oral, 50 mg/kg, 2 h, 20% HPβCD vehicle).
`O=Cc1cc2c(cc1F)C(=O)N(C1CCC(=O)NC1=O)C2` (stereo not shown) gave a plasma concentration of 1 ng/mL (cynomolgus monkey, male; oral, 0.3 mg/kg parent drug, 3 h).
The amount permeated of `[H]/N=C(/N)N[C@H]1[C@H](O)[C@@H](O)[C@H](O[C@@H]2O[C@@H](C)[C@](O)(C=O)[C@H]2O[C@@H]2O[C@@H](CO)[C@H](O)[C@@H](O)[C@@H]2NC)[C@@H](N/C(N)=N\[H])[C@@H]1O` is reported as 0.28 nmol (starch gel membrane permeability; Gram-negative envelope surrogate; 200 µM, 10 min, pH 7.4).
Under “NK cell count change”, `Cn1cc(Nc2nccc(-c3ccc4c(c3)CN(C3COC3)CC[C@H]4NC(=O)c3cn(C(C)(C)C)nn3)n2)cn1` is recorded as 9.32% (human, whole blood; 300 mg twice daily, day 7; relative to: pre-dose baseline).
Under “R/S enantiomer ratio”, `COc1ccc2nc([S+]([O-])Cc3ncc(CO)c(OC)c3C)[nH]c2c1` (stereo not shown) is recorded as 3.38 (human, dried plasma spots; 4 h, with: fluvoxamine and voriconazole).
For `NC[C@H]1O[C@H](O[C@H]2[C@H](O)[C@@H](O[C@H]3O[C@H](CO)[C@@H](O)[C@H](N)[C@H]3O)[C@H](N)C[C@@H]2N)[C@H](N)C[C@@H]1O`, the amount permeated was 0.36 nmol (starch gel membrane permeability; Gram-negative envelope surrogate; 200 µM, 20 min, pH 7.4).
`O=C(O)C(O)Cc1ccc(O)cc1` (stereo not shown) gave a plasma concentration of 9270 nM (human plasma; median).
`CNC(=O)c1ccc(-c2cnc3ncc(Cc4ccc5ncccc5c4)n3n2)cc1F`: “back pain incidence (all grades)” 17% (CTCAE v4.0, any causality; human cancer patients; oral, 600 mg twice daily, expansion, other tumours, RP2D).
`C[Si]1(C)O[Si](C)(C)O[Si](C)(C)O[Si](C)(C)O[Si](C)(C)O1` gave a log KAW of 3.16 (regression; 25 °C).
Under “subjects with adverse event”, `CC(C)(C(=O)N1CCOc2c(C#N)cncc2C1)C(F)F` is recorded as 0% (item: eye disorders; human; oral, 10 mg once daily, 14 days, multiple ascending dose).
With `CC(C)NCC(O)COc1cccc2ccccc12` (stereo not shown) the permeability coefficient was 6.89 ×10⁻⁶ cm/s (PAMPA; brain lipid membrane; 10 µM, 4 h).
For `Cc1c2oc3c(C)ccc(C(=O)N[C@@H]4C(=O)N[C@H](C(C)C)C(=O)N5CCC[C@H]5C(=O)N(C)CC(=O)N(C)[C@@H](C(C)C)C(=O)O[C@@H]4C)c3nc-2c(C(=O)N[C@@H]2C(=O)N[C@H](C(C)C)C(=O)N3CCC[C@H]3C(=O)N(C)CC(=O)N(C)[C@@H](C(C)C)C(=O)O[C@@H]2C)c(N)c1=O`, “minimum plasma concentration” read 5.3 µg/L (children with cancer, plasma; dose not given, 15 min).
For `COc1cc2c(cc1OC)C(=O)C(CC1CCN(Cc3ccccc3)CC1)C2` (stereo not shown), “VAS score change” read 0.8 mm (Bond-Lader VAS, item: Alertness; human; dose not given; relative to: placebo, direction not given).
The AUC(0-last) ratio of `COc1cccc(-c2n[nH]c(SCc3ccccn3)n2)c1OC` is reported as 0.92 (Sprague-Dawley rat, plasma; oral, 30 mg/kg; relative to: female over male).
`CCN1/C(=C/C(C)=O)Sc2ccc(F)cc21`: “systolic blood pressure” 112 ± 7 mmHg (cynomolgus monkey; oral, 10 mg/kg, 2 h post-dose).
The plasma concentration of `O=c1c(O)c(-c2cc(O)c(O)c(O)c2)oc2cc(O)cc(O)c12` is reported as 576 nM (human plasma; median, both sexes).
`CCc1nc(C(N)=O)c(Nc2ccc(N3CCC(N4CCN(C)CC4)CC3)c(OC)c2)nc1NC1CCOCC1` gave a Cmax of 65.6 ng/mL (Japanese patients, plasma; oral, 80 mg, cycle 0 day -2, single dose, median).
For `O=c1cc(-c2ccccc2)oc2ccccc12`, the plasma concentration was 1290 nM (human plasma; median, both sexes).
Under “urinary potassium excretion change”, `Cc1ccc([C@@H]2O[C@H](CO)[C@@H](O)[C@H](O)[C@H]2O)cc1Cc1ccc(-c2ccc(F)cc2)s1` is recorded as -4.74 mEq (Japanese type 2 diabetes patients; 400 mg, day 2, 24 h urine collection; relative to: baseline).
